Results from different studies.
Compare with care: the assays were run in different laboratories. Several values in a cell are separate wells, animals, samples, runs or records. ± marks the error that the study gave.
MYLK: Myosin light chain kinase, smooth muscle (MYLK, Homo sapiens, UniProt Q15746)
Chain of UniProt Q15746 (whole entry, looked up): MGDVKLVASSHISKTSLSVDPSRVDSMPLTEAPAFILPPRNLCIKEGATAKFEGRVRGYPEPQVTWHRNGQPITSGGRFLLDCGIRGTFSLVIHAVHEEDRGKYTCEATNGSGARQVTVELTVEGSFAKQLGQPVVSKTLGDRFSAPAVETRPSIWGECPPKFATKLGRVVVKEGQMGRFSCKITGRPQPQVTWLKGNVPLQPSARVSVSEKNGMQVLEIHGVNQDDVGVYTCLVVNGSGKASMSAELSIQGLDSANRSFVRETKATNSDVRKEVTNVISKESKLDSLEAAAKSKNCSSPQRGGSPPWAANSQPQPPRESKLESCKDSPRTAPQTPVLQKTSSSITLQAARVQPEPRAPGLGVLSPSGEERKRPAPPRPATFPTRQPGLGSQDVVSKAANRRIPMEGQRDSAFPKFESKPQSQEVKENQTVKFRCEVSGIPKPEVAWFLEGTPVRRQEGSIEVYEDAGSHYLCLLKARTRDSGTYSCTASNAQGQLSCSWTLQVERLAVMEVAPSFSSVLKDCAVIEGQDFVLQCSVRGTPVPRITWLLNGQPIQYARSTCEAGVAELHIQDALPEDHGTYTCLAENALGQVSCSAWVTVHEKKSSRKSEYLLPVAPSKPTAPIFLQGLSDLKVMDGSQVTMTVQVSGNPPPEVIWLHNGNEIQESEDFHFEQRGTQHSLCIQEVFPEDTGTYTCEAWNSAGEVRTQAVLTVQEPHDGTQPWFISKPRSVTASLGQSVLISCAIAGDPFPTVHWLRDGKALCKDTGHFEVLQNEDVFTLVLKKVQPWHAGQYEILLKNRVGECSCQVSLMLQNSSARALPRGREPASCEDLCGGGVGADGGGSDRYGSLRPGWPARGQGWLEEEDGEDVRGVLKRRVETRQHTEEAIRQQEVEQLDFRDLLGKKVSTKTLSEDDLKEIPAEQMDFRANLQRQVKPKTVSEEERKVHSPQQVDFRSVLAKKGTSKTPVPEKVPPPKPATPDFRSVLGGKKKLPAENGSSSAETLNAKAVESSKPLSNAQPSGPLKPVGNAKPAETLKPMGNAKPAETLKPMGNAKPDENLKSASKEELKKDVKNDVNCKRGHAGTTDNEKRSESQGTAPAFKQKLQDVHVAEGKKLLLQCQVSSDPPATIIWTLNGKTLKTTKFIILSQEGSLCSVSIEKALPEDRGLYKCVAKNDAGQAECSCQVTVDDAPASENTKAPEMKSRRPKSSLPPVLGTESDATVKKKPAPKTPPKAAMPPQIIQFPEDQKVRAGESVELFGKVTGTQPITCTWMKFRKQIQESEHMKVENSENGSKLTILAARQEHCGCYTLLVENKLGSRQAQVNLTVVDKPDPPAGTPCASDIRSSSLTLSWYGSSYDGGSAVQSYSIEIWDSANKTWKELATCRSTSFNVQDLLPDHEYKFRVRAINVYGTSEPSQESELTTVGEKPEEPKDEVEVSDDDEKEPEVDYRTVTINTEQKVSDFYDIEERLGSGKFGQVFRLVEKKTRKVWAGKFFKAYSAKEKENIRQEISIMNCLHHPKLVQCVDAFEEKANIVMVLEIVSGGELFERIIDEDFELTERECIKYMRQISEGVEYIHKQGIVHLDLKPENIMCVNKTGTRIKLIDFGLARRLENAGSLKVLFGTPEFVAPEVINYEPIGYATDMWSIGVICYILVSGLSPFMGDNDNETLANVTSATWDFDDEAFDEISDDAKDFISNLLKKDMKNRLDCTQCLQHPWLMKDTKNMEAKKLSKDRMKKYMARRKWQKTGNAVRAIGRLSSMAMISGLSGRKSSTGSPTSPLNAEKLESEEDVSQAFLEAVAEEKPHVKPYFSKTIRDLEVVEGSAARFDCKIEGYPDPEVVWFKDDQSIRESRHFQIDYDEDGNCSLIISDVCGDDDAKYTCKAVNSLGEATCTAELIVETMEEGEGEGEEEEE
Chain of UniProt Q62351 (whole entry, looked up): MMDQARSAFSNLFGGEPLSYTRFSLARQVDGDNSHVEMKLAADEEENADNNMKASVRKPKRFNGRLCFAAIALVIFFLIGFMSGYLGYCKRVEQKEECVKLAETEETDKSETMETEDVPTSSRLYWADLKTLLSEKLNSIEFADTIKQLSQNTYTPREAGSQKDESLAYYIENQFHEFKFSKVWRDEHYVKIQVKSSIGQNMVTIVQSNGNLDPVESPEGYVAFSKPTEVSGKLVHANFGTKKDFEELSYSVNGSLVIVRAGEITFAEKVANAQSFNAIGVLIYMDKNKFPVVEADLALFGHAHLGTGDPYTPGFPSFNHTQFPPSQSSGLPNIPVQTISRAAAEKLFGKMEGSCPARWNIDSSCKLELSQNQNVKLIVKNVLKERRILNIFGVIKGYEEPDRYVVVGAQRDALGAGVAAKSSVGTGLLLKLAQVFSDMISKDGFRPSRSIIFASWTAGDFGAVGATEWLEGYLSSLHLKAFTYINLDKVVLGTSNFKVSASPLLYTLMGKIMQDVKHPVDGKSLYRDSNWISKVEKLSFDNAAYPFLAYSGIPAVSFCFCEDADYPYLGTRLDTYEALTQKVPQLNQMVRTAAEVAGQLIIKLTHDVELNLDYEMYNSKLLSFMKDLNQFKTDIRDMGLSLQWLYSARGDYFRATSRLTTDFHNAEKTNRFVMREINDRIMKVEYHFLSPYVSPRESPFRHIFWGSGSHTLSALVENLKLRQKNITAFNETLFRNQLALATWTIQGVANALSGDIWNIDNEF
Chain of UniProt P13945 (whole entry, looked up): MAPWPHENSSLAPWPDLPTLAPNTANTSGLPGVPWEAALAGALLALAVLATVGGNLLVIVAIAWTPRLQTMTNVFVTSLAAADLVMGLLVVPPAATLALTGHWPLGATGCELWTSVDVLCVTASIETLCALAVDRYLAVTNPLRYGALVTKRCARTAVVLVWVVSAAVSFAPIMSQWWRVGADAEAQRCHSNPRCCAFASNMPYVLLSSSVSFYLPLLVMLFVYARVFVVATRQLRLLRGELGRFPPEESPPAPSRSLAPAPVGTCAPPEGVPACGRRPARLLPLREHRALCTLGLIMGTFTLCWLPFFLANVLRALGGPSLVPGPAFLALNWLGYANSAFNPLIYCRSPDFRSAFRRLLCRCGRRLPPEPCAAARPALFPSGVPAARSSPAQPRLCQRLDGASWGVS
Chain of UniProt P53350 (whole entry, looked up): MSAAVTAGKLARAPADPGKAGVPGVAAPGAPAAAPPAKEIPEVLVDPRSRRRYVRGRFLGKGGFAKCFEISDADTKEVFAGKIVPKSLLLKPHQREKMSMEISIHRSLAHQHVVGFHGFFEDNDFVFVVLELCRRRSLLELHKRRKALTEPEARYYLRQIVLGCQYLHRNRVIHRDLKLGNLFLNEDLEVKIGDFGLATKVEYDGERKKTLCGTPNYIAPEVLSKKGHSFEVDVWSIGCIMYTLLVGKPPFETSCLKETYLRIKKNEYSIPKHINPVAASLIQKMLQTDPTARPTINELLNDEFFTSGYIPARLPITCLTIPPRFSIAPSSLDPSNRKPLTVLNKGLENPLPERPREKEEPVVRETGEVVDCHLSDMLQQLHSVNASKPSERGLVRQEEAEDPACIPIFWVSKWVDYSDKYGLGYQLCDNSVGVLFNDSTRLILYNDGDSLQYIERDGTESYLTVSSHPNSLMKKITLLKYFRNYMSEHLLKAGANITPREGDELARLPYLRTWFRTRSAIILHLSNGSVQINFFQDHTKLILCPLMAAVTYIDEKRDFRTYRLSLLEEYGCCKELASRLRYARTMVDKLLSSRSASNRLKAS
Chain of UniProt P07437 (whole entry, looked up): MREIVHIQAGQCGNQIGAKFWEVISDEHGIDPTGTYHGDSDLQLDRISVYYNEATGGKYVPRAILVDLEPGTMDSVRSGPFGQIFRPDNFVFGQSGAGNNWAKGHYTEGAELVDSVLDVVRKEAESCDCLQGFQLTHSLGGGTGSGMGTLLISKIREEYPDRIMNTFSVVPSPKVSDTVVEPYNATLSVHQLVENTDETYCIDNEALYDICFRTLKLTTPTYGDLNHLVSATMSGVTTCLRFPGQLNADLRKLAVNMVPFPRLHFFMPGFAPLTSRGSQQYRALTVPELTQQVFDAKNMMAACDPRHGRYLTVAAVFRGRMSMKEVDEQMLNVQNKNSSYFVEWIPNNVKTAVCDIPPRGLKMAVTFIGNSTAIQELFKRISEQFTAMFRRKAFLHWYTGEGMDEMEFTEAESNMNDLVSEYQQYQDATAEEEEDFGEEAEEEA
Chain of UniProt Q9UBS5 (whole entry, looked up): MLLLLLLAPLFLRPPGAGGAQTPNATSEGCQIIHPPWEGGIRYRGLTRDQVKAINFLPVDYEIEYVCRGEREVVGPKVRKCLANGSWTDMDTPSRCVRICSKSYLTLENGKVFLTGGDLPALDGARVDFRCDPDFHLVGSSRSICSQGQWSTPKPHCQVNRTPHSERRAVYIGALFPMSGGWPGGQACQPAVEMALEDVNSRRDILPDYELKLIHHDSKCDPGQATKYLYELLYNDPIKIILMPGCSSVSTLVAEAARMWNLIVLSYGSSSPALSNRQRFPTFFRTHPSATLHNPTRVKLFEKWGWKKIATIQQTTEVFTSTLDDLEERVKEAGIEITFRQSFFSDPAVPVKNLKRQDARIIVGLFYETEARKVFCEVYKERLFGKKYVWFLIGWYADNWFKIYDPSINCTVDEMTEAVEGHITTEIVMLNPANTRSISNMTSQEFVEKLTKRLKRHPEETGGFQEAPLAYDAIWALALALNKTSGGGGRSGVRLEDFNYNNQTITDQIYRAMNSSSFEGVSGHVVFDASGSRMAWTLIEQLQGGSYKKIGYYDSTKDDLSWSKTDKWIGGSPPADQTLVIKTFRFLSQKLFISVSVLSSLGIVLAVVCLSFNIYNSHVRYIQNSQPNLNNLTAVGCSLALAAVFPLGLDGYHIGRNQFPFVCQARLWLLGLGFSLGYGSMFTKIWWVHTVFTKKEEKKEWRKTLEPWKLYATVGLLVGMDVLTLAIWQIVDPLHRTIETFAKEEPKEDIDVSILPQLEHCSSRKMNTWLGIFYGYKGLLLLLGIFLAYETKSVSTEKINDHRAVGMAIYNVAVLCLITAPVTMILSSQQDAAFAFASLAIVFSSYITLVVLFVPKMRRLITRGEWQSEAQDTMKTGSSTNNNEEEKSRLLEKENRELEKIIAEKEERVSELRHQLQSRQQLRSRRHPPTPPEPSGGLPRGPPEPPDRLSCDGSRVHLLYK

| SMILES | target or system | assay | test system | setting | how to read | quantity | value |
| --- | --- | --- | --- | --- | --- | --- | --- |
| CC[C@H](C)[C@H](NC(=O)[C@H](Cc1ccccc1)NC(=O)[C@H](CCC(=O)O)NC(=O)[C@H](CCCNC(=N)N)NC(=O)[C@H](C)NC(=O)[C@H](C)NC(=O)[C@H](CCC(N)=O)NC(=O)[C@H](CCC(=O)O)NC(=O)[C@H](CCC(=O)O)NC(=O)[C@H](CC(C)C)NC(=O)[C@H](Cc1ccc(O)cc1)NC(=O)[C@H](CO)NC(=O)[C@H](CO)NC(=O)[C@@H](NC(=O)[C@H](CC(=O)O)NC(=O)[C@H](CO)NC(=O)[C@@H](NC(=O)[C@H](Cc1ccccc1)NC(=O)[C@@H](NC(=O)CNC(=O)[C@H](CCC(=O)O)NC(=O)[C@H](C)NC(=O)CCc1c[nH]cn1)[C@@H](C)O)[C@@H](C)O)C(C)C)C(=O)N[C@@H](C)C(=O)N[C@@H](Cc1c[nH]c2ccccc12)C(=O)N[C@@H](CC(C)C)C(=O)N[C@H](C(=O)N[C@@H](CCCNC(=N)N)C(=O)NCC(=O)N[C@@H](CCCNC(=N)N)C(=O)N[C@@H](CCCCNC(=O)COCCOCCNC(=O)COCCOCCNC(=O)CC[C@H](NC(=O)CCCCCCCCCCCCCCCCC(=O)O)C(=O)O)C(=O)NCC(=O)NCC(=O)N[C@@H](CO)C(=O)N[C@@H](CCCCNc1c(NCCCCCN(O)C(=O)CCC(=O)NCCCCCN(O)C(=O)CCC(=O)NCCCCCN(O)C(C)=O)c(=O)c1=O)C(=O)O)C(C)C [zirconium-89 labelled] |  | ex vivo gamma counting | rat, muscle | subcutaneous, 3 nmol/kg, 168 h, together with: [89Zr]-labelled peptide |  | tissue uptake | 0.04 %ID/g |
| COc1cc(Nc2ncc(F)c(Nc3ccc4c(n3)NC(=O)C(C)(C)O4)n2)cc(OC)c1OC | MYLK | KINOMEscan |  | 10 µM |  | inhibition | 54% |
| C[C@H]1CN(c2n[nH]c3nc(N[C@H]4CC[C@H](NS(=O)(=O)CCC(F)(F)F)CC4)ncc23)CCO1 | MYLK | inhibitor, Kinobeads competition profiling |  | 20 µM | baseline: vehicle | relative abundance | 1.09 |
| COc1cc2c(Oc3ccc4[nH]c(C)cc4c3F)ccnc2cc1OCC1(N)CC1 |  | measured: grade 1 or 2 blurred vision | paediatric high-risk refractory sarcoma | whole group |  | incidence of adverse event | 2.9% |
| [2H]c1c([2H])c([C@]2([2H])CCCN2C(=O)C(C)(C)Oc2ccc3cn[nH]c3c2)c([2H])c([2H])c1C([2H])([2H])[2H] | Citron Rho-interacting kinase (CIT, Homo sapiens, UniProt O14578) | KINOMEscan |  | 1 µM | baseline: DMSO control | remaining binding | 86% |
| COc1ccc(N2C(=O)N(c3c(C)cccc3Cl)Cc3cnc(Nc4ccc(C5CCN(C)CC5)cc4OC)nc32)nc1 | Serine/threonine-protein kinase PLK1 (PLK1, Homo sapiens, UniProt P53350) | kinase activity |  | 0.5 µM |  | inhibition | 10% |
| C[C@@H](O)[C@@H](CO)NC(=O)[C@@H](CCCNC(=N)N)NC(=O)[C@@H]1CCCN1C(=O)[C@@H]1CSSC[C@H](NC(=O)[C@H](Cc2ccccc2)NC(=O)CN2CCN(CC(=O)O)CCN(CC(=O)O)CCN(CC(=O)O)CC2)C(=O)N[C@@H](Cc2ccc(O)cc2)C(=O)N[C@@H](Cc2ccccc2)C(=O)N[C@@H](CCC(N)=O)C(=O)N[C@@H](CC(N)=O)C(=O)N1 [gallium-68 labelled] |  |  | Wistar rat, healthy, Parotid gland | intravenous, 8 MBq, 120 min |  | tissue uptake | 0.08 %ID/g |
| O=C(Nc1cccnn1)N1CCC(=Cc2cccc(Oc3ccc(C(F)(F)F)cn3)c2)CC1 | Amine oxidase [flavin-containing] A (MAOA, Homo sapiens, UniProt P21397) | enzyme activity, inhibitor |  | 10 µM, human, together with: kynuramine substrate |  | inhibition | 17% |
| CN1CCN(c2cc(-c3ccncc3)c(-c3ccc4ccccc4c3)nn2)CC1 | Beta-3 adrenergic receptor (ADRB3, Homo sapiens, UniProt P13945) | antagonist, FLIPR |  | 10 µM |  | inhibition | 21.9% |
| O=C(c1ccc(Cl)cc1)N1CCN2C(=O)N(OC(=O)N3CCOc4ccccc43)C(=O)C2C1 (stereo not drawn) | Tubulin beta-5 chain (TUBB, Homo sapiens, UniProt P07437) | MS-based ABPP | SW-620 conditioned medium | 10 µM | baseline: compound over DMSO, lower = more inhibition | median protein ratio | 1.07 |
| CC[C@@H](C)[C@@H](NC(=O)[C@@H](Cc1ccc(O)cc1)NC(=O)[C@H]1CCCN1C(=O)[C@@H](CCCNC(=N)N)NC(=O)[C@H](N)Cc1c[nH]cn1)C(=O)N[C@H](C)C(=O)N[C@H](Cc1c[nH]cn1)C(=O)N[C@H](CCCNC(=N)N)C(=O)N[C@H](CCCCNC(=O)c1cccc(S(=O)(=O)F)c1)C(=O)N[C@H](Cc1ccc(O)cc1)C(=O)N[C@H](CO)C(=O)N[C@H](Cc1ccccc1)C(N)=O | Transferrin receptor protein 1 (Tfrc, Mus musculus, UniProt Q62351) | flow cytometry | DC2.4 | 6 h, pH 7.4, unit not given | baseline: 0 h | surface expression | 0.724 and 0.727 |
| CN(C(=O)n1cnc(-c2ccc[n+]([O-])c2)c1)C1CCCCC1 | IP3 receptor, rat | binding |  | 50 µM, together with: [3H]IP3 |  | inhibition | 20% |
| CC(C)C[C@@H]1NC(=O)[C@H](CC(C)C)NC(=O)[C@H](Cc2c[nH]c3ccccc23)NC(=O)[C@H](CO)NC(=O)[C@H](Cc2c[nH]c3ccccc23)NC(=O)[C@@H]2CCCN2C(=O)[C@H](CC(C)C)NC(=O)[C@H](Cc2c[nH]cn2)NC(=O)[C@@H]2CCCN2C(=O)[C@H](CC(N)=O)NC(=O)[C@H](C)NC(=O)[C@H](Cc2ccc(O)cc2)NC(=O)[C@H](CS)NC(=O)[C@H](CCCCNC(=O)CN2CCN(CC(=O)O)CCN(CC(=O)O)CCN(CC(=O)O)CC2)NC1=O [lutetium-177 labelled] |  |  | female BALB/c mice, 4T1 tumour, tumour | intravenous, 4 h, blocking study |  | tumour uptake | 4.87 ± 1.01 %ID |
| O=C(Nc1cnccc1Cl)N1CCN(Cc2ccc3c(c2)OC(F)(F)O3)CC1 | Gamma-aminobutyric acid type B receptor subunit 1 (GABBR1, Homo sapiens, UniProt Q9UBS5) | radioligand binding |  | 10 µM, together with: [3H]CGP-54626 |  | inhibition of binding | 1% |
| CC[C@H](C)[C@@H]1NC(=O)[C@@H]2CCCN2C(=O)[C@H](CC(C)C)NC(=O)[C@H](CC(C)C)NC(=O)CNC(=O)[C@@H](NC(=O)[C@@H](NC(=O)[C@H](CC(=O)O)NC(=O)CNC(=O)[C@@H](NC(=O)[C@H](C)NC(=O)CNC(=O)[C@H](CCCCN)NC(=O)[C@H](CC(C)C)NC(=O)[C@H](CC(C)C)NC(=O)[C@H](CCCCN)NC(=O)CNC(=O)[C@@H](NC(=O)[C@@H](N)CC(C)C)C(C)C)C(C)C)C(C)C)CSSC[C@@H](C(=O)O)NC1=O |  | RNA-seq, measured: Cd3d | mouse, traumatic brain injury model, frontal cortex and hippocampus | dose not given | baseline: TBI alone | log2 fold change | -2.9 |

Excerpt of the above:
| SMILES | target or system | assay | test system | setting | how to read | quantity | value |
| --- | --- | --- | --- | --- | --- | --- | --- |
| C[C@H]1CN(c2n[nH]c3nc(N[C@H]4CC[C@H](NS(=O)(=O)CCC(F)(F)F)CC4)ncc23)CCO1 | MYLK | inhibitor, Kinobeads competition profiling |  | 20 µM | baseline: vehicle | relative abundance | 1.09 |
| COc1cc2c(Oc3ccc4[nH]c(C)cc4c3F)ccnc2cc1OCC1(N)CC1 |  | measured: grade 1 or 2 blurred vision | paediatric high-risk refractory sarcoma | whole group |  | incidence of adverse event | 2.9% |
